# Measured values of several laboratories.
# Numbered parts are unrelated; each lists some results of a single study. Substitutions count along the parent as printed.

# Series 1
# Target: CCNA2, cyclin fold, Cln2 fusion (human)
# Technique: yeast growth competition, sequencing
# Sample: yeast
# Setting: strong parent motif
# Reference: not given
# Reading: higher = stronger binding
# Parent: viral docking peptide; YKVKRRLVFGADD; partner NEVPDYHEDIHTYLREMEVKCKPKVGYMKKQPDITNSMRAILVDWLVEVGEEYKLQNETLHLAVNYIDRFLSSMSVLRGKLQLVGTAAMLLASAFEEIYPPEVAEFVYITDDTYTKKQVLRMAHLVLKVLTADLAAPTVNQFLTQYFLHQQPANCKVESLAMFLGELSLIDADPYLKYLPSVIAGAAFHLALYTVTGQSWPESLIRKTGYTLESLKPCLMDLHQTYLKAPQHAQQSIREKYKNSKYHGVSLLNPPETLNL
Substitution,normalised enrichment score
YKVKRRLVFVADD [G10V],5.76
YKVKWRLVFGADD [R5W],1.08
YKVKRRLYFGADD [V8Y],6.41
YKVPRRLVFGADD [K4P],4.57
YKVKRRLAFGADD [V8A],6.35
YKVKRRLVFGYDD [A11Y],6.09
YKWKRRLVFGADD [V3W],4.66
YKVKQRLVFGADD [R5Q],4.41
YKGKRRLVFGADD [V3G],4.37
YKVKRRLVFGRDD [A11R],6.46
YKVKFRLVFGADD [R5F],1.05
YKVKRRYVFGADD [L7Y],0.368
YKVKERLVFGADD [R5E],0.638
YKVKRRLVHGADD [F9H],0.643
YKVKRHLVFGADD [R6H],5.11
YKVKARAVFGADD [R5A L7A],0.955
YNVKRRLVFGADD [K2N],6.21

# Series 2
# Target: Ras GTPase-activating protein-binding protein 1, RRM domain (G3BP1, Homo sapiens, UniProt Q13283)
# Sequence of UniProt Q13283 (whole entry, looked up): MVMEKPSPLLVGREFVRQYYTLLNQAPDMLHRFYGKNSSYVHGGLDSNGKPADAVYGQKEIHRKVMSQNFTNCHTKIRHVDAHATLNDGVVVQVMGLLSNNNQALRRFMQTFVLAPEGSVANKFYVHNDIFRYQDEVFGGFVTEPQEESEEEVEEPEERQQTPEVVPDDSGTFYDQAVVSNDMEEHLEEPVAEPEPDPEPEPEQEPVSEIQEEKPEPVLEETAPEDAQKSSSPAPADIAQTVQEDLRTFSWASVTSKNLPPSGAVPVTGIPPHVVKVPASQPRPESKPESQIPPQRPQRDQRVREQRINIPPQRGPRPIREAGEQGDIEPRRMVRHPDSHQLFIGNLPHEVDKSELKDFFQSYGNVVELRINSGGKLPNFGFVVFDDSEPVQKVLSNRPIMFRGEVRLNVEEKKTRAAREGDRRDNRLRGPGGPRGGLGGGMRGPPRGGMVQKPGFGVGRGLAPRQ
# Technique: RNA Bind-n-Seq
# Molecule type: RNA
# Sample: in vitro
# Tested at: 1 µM
# Setting: whole 134-nt RNA, ends assumed
# Added: 150 mM KCl
# Reference: input library
# Reading: higher = stronger binding
# Constant ends, left off below: GGGAGUUCUACAGUCCGACGAUC … UGGAAUUCUCGGGUGUCAAGG
Sequence,log2 enrichment
CUCAAGUCCUGUGCUACACAUCGUAUGUACCGAAUCGGAAAGGUUUGGUUUGGAAAGUAUUAUGUUACGCCGUUCGGAUCUGCACUUCCA,-0.258
UGGGAGGUGGAUUUUGUUUAUUUUUUUAGCUCAUUUCCAGGGGUGGGAAUUUUUUUUUAAUAUGUGUCAUGAAUAAAAUUGUUUUUGAAA,1.18
CAUCAAAAUAGCUACAAACCAUACUAAAUUAUUCCAUUUGCAACUUAUCCCCAACAGGUAUGUUCUAAAAAUAGUUUUUUUUUGUCAUUU,-0.085
AAGGCACGUAAGUUUAAGCUUUUUUUUUUUUUAAGUUAAUGGGAAAAAUUUGAGACGCAAUACCAAUACUUAGGAUUUUGGUCUUGGUGU,-0.724
AAGUCCUGUGCUACACAUCGUAUGUACCGAAUCGGGGAGGGGUGGGGUUUUUGGGGAAAGUAUUAUGUUACGCCGUUCGGAUCUGCACUU,0.7
UAACUUUAGAGGAGGAUCAGAUGGAUAUGGCAGUGGACGUGGAUUUGGGGAUGGCUAUAAUGGGUAUGGAGGAGGACCUGGAGGUGGCAA,-0.692
UAACUUUAGAGGAGGAUCUGAUGAAUAUGGCAGUGGACGUGGAUUUGGGGAUGGCUAUAAUGGGUAUGGAGGAGGACCUGGAGGUGGCAA,-0.694
ACCAUGCAGGUGGGCAUCUUUGGGAAGUGGGGCAAGGGGGGGAUAGGGAGUGGGGUAACACUUUGGGAACAGGUGGUCCCAGGUCGUUUC,1.03

# Series 3
# Target: UDP-N-acetylglucosamine--peptide N-acetylglucosaminyltransferase 110 kDa subunit (OGT, Homo sapiens, UniProt O15294)
# Sequence of UniProt O15294 (whole entry, looked up): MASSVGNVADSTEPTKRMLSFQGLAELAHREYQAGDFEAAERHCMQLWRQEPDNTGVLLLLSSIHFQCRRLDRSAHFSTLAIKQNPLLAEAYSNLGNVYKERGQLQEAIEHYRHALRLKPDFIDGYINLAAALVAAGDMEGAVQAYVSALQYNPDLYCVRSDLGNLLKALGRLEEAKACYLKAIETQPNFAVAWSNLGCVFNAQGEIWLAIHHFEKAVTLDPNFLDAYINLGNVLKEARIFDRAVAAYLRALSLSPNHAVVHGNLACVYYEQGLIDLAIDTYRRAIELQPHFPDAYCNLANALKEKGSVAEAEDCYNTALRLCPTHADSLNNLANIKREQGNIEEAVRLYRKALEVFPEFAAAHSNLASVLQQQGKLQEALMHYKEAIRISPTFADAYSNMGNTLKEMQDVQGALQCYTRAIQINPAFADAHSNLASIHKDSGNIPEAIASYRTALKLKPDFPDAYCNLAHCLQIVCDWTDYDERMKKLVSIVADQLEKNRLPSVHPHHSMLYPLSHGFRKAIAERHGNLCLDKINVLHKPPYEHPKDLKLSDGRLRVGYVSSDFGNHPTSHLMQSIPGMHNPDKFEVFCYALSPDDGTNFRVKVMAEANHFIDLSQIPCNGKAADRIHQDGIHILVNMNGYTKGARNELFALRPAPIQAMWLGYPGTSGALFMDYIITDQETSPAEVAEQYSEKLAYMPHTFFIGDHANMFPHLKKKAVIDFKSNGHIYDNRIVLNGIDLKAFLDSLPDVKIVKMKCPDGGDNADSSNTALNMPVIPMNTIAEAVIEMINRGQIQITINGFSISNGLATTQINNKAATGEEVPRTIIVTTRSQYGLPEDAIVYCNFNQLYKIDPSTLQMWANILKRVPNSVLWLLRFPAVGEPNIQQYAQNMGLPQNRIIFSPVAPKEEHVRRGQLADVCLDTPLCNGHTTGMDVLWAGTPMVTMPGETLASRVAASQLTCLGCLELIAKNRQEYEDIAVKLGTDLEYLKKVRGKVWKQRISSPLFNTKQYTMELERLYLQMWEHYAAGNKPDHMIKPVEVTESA
# Effect on: binding
# Technique: phage display NGS
# Molecule type: peptide
# Reference: input library
Molecule,minimum log2 enrichment ratio
DMYEYRYKPHYVIQI,2.71
TLSPQHNHEHNQPHH,2.81
HLYTFQHHRSEWLGR,1.37
HLQYPDHPIHEHTHI,3.66
IRHPYDHFHDKPGGS,3.23
APDIFFHPKYYIKI,3.8
TIEHHHRTHTPMPSY,3
ITSMDYTPAYQLRYS,1.29
HIHLHAQENPKVPYH,2.2
DSWFHAFAHHGHNTP,2.66
HVSHTHPYQSQDHQH,2.05

# Series 4
# Target: inorganic phosphate, free oxyanion
# Technique: microfluidic competitive inhibition
# Sample: in vitro, cell-free expressed
# Tested at: not given
# Setting: derived from inhibition constants, unchanged parent 615000 nM
# Reading: lower = stronger binding
# Parent: PafA, mature enzyme, eGFP fusion (Elizabethkingia meningoseptica, UniProt Q9KJX5); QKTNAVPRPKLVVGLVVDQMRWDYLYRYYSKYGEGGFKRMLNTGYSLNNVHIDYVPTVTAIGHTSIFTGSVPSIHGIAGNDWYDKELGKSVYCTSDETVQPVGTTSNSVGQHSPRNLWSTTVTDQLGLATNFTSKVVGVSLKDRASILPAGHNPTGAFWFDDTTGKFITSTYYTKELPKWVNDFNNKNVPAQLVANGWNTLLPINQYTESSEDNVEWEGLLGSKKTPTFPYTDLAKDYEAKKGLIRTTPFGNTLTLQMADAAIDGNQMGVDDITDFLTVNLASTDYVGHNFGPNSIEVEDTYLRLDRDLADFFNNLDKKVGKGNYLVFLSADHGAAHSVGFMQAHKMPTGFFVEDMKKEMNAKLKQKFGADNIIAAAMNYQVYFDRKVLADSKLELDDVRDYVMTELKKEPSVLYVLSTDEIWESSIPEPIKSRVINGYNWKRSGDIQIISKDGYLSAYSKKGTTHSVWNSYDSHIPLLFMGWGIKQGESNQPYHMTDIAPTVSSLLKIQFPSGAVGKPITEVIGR
Substitution,phosphate dissociation constant
L126G,398 µM
V194G,417 µM
G269A,594 µM
S433V,565 µM
S106G,587 µM
K508G,429 µM
H345G,581 µM

# Excerpt of the above (series 1):
Substitution,normalised enrichment score
YKVKQRLVFGADD [R5Q],4.41
YKGKRRLVFGADD [V3G],4.37
